Results gathered from unrelated publications.
Protocols differ between the studies behind these lines. Values joined by “and” are separate records of one study, mostly repeats; a detail may differ. ± marks the error that the study gave.
CHEK2: Serine/threonine-protein kinase Chk2 (CHEK2, Homo sapiens, UniProt O96017)
ESR1: Estrogen receptor (ESR1, Homo sapiens, UniProt P03372)
IDO1: Indoleamine 2,3-dioxygenase 1 (IDO1, Homo sapiens, UniProt P14902)
AKT1: RAC-alpha serine/threonine-protein kinase (AKT1, Homo sapiens, UniProt P31749)
APP amyloid-beta peptide: Amyloid-beta precursor protein, amyloid-beta peptide (APP, Homo sapiens, UniProt P05067)
Grm2: Metabotropic glutamate receptor 2 (Grm2, Rattus norvegicus, UniProt P31421)
Moesin with CD44: Moesin, with CD44 (Homo sapiens, UniProt P26038)

By UniProt entry, the sequences of proteins in these tests, tags left out. Residues count along the entry.
UniProt P03372, whole entry: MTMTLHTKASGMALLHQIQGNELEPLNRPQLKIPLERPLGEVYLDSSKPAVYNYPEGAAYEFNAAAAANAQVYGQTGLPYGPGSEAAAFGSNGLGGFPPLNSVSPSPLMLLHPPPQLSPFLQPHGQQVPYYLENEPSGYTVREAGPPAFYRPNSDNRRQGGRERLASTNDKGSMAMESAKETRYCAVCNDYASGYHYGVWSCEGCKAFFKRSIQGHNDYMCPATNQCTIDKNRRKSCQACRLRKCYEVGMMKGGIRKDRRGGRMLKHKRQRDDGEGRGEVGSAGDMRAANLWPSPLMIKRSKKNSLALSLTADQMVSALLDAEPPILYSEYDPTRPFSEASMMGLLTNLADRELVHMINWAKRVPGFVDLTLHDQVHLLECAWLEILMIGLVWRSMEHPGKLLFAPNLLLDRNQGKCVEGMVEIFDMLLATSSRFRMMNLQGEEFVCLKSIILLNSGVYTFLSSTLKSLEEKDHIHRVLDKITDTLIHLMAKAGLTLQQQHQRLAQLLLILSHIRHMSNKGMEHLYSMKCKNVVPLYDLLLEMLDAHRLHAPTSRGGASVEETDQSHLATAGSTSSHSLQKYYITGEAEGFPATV
UniProt P14902, whole entry: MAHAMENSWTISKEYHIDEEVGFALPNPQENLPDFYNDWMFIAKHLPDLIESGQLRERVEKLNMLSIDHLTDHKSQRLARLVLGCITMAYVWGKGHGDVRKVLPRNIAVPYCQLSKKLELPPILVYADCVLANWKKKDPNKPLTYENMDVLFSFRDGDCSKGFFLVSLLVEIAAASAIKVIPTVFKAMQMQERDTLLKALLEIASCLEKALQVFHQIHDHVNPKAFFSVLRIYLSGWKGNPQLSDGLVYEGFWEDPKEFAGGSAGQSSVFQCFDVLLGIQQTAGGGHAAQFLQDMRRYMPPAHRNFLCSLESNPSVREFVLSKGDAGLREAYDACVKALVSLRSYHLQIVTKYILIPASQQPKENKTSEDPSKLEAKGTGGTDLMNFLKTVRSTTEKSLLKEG
UniProt P31749, whole entry: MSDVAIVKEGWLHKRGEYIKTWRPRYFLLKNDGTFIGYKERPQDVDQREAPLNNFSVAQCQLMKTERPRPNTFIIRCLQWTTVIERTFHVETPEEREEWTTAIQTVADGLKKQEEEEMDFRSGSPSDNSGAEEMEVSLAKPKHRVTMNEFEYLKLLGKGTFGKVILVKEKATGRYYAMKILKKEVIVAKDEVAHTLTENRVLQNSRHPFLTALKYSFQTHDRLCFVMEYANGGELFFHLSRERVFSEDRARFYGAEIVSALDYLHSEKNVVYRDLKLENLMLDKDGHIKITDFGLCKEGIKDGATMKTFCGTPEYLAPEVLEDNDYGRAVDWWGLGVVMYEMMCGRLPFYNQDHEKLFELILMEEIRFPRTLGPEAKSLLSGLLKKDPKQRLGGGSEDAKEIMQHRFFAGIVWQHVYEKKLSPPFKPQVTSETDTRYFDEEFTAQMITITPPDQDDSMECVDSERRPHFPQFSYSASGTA
UniProt P05067, whole entry, looked up: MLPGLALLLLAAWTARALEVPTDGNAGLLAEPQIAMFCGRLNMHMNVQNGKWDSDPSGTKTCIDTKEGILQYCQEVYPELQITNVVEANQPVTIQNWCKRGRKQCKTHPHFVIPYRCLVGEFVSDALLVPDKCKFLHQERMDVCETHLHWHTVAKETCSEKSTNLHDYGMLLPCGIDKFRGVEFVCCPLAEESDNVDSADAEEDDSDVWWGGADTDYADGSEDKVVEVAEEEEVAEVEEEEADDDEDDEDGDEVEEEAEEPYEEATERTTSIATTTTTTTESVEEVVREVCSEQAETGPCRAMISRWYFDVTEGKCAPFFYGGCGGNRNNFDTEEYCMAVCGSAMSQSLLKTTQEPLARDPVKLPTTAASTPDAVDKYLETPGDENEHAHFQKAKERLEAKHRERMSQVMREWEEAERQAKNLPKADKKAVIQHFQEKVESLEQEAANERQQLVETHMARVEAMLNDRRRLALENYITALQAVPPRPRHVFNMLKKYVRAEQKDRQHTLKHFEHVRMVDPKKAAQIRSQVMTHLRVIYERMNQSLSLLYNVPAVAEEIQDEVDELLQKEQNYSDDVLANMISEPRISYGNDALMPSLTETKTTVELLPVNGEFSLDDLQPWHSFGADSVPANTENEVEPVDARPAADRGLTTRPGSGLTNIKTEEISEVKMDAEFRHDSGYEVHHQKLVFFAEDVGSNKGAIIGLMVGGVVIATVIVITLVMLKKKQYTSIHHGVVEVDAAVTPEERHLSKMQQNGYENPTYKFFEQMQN
UniProt P05067, 672-713 limits assumed: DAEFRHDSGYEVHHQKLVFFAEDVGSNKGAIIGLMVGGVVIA
UniProt O00748, 27-559 limits assumed: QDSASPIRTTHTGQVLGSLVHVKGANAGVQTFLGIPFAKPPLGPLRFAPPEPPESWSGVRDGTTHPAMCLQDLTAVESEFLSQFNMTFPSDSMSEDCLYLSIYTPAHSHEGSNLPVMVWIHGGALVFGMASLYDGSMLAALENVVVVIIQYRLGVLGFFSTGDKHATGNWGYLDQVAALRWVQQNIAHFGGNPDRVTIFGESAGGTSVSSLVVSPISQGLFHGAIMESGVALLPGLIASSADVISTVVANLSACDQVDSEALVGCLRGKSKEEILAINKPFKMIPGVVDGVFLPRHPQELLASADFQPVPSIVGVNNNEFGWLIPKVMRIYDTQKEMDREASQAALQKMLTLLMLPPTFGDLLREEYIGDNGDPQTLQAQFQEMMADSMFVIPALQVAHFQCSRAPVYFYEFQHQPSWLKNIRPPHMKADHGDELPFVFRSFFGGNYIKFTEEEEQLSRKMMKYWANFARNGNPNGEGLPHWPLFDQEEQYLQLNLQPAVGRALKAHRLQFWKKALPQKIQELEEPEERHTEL
UniProt Q99436, whole entry, looked up: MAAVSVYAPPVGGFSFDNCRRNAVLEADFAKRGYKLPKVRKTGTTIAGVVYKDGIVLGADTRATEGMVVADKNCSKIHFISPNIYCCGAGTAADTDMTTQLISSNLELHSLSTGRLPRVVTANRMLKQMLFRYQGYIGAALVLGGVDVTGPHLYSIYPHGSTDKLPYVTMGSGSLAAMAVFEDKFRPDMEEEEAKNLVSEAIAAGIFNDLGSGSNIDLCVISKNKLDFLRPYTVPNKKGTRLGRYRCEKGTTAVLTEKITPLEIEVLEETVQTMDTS
UniProt P35354, 18-604 limits assumed: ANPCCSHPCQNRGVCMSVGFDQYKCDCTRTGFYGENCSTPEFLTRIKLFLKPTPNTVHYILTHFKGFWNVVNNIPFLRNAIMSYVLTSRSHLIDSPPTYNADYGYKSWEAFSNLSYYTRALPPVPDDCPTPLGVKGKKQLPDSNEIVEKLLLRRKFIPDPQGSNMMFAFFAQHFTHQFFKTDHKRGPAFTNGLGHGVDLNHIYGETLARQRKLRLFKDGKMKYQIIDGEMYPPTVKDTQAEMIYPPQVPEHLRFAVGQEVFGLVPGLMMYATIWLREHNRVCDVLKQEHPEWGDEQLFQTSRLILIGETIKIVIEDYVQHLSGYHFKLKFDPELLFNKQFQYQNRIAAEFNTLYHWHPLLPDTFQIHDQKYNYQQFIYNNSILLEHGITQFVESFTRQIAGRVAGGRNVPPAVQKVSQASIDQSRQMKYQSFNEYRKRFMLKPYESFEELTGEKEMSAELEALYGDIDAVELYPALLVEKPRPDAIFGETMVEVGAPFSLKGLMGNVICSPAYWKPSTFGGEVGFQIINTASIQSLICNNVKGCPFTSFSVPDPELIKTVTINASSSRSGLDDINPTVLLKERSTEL
UniProt Q92630, whole entry: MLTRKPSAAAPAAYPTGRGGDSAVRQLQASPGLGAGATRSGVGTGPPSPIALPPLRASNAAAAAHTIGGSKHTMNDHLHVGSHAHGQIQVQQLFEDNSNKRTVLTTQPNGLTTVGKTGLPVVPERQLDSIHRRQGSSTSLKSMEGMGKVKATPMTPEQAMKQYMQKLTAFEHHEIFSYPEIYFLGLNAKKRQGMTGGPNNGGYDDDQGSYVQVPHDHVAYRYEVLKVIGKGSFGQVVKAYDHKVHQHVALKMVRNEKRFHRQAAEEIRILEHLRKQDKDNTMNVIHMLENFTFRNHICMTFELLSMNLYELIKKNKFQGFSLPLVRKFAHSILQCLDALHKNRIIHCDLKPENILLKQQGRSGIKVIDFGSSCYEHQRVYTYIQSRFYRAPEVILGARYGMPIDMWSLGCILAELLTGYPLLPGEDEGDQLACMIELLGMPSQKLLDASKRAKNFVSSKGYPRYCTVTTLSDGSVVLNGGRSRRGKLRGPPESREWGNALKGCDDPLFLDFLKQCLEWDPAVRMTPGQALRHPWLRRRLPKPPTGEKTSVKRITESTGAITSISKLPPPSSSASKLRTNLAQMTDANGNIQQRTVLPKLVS
UniProt Q96KQ7, whole entry: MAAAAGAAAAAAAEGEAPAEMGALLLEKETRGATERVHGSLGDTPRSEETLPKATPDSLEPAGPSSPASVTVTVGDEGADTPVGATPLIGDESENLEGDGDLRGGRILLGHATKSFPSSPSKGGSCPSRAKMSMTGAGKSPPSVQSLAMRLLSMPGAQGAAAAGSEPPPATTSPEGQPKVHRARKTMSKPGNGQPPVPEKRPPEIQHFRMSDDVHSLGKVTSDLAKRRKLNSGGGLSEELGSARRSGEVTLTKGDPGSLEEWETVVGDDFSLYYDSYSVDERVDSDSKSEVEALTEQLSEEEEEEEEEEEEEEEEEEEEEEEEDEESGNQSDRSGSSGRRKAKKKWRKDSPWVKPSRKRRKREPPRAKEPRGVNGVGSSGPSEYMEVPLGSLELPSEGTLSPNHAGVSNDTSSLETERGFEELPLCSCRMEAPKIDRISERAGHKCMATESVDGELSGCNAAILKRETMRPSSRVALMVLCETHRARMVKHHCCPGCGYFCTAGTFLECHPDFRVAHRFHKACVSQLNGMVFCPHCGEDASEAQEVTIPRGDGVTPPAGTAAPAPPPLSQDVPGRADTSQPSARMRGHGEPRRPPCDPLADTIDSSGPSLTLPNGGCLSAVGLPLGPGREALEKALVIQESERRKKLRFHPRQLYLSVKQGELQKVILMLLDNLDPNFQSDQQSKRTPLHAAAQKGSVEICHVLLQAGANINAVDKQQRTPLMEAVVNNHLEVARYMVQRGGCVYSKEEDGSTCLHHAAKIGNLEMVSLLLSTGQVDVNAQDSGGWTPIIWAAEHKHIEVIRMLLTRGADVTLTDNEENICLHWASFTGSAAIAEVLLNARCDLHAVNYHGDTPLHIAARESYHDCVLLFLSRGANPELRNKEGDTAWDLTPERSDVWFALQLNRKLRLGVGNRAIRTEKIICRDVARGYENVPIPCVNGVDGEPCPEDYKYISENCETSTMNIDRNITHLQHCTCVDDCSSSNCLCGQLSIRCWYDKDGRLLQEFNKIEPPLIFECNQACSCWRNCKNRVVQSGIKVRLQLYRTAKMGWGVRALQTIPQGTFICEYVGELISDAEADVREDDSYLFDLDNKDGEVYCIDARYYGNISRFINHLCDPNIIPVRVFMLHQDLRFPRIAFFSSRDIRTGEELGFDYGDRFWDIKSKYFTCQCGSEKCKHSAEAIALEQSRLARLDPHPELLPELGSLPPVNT
UniProt A0A381MCS3, 1-451: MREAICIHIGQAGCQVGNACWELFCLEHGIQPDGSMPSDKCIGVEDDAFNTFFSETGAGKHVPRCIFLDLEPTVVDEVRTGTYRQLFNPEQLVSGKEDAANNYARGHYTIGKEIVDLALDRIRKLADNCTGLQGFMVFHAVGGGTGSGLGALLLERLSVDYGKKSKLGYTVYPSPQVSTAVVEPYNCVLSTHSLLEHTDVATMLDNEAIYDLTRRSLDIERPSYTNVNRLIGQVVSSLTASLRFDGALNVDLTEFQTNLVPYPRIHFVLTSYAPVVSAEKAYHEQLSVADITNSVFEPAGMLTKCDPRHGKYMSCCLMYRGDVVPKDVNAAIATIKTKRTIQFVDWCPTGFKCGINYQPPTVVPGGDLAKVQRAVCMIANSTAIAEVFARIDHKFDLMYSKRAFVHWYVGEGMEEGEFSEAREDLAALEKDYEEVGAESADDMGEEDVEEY
UniProt P34913, whole entry: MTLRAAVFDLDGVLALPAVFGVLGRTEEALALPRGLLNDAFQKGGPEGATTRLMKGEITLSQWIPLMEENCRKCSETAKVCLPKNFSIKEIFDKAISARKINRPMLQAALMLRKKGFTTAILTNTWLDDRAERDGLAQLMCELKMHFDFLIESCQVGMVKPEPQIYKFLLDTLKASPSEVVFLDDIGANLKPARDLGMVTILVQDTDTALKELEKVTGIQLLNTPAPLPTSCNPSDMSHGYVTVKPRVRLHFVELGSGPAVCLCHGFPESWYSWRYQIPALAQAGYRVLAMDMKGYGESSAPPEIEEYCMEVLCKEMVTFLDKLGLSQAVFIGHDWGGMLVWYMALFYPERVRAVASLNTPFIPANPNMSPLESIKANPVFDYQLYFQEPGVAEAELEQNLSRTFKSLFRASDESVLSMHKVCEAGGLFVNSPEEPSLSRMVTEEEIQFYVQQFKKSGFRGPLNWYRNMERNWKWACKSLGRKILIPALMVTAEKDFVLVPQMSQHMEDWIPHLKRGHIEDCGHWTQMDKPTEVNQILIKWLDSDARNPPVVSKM

O=C(O)c1cc(C(=O)N[C@@H](Cc2cnc[nH]2)C(=O)O)cc([C@H]2CCN[C@@H]2C(=O)O)c1 — IC50 (AMPA receptor (rat); binding, radioligand binding; rat cortical synaptosomes; with: [3H]AMPA): 10000 to 50000 nM
CC(=NNC(=N)N)c1ccc2[nH]c(C(=O)Nc3ccc4cc[nH]c4c3)cc2c1 — IC50 (CHEK2; kinase activity, inhibitor, IMAP fluorescence polarization): 12.7 ± 11.9 nM
CN1C(=S)Cc2ccccc21 — IC50 (MMP2 (Homo sapiens, UniProt P08253); inhibitor): 103000 ± 10600 nM
O=C(CN1C(=O)C=CC1=O)N1CCN(c2cc(N3CCCC3)nc(N3CCCC3)n2)CC1 — IC50 (Caspase-1 (CASP1, Homo sapiens, UniProt P29466); inhibitor; 45 min preincubation): 94 ± 13 nM
O=C(NO)c1cc(F)cc(F)c1F — IC50 (HDAC6 (Homo sapiens, UniProt Q9UBN7); enzyme activity, inhibitor, electrophoretic mobility shift; with: FAM-RHKK(Ac)-NH2 1 µM): 542 nM
CC(C)[C@H](NC(=O)c1cc(C(=O)O)cc([C@H]2CCN[C@@H]2C(=O)O)c1)C(=O)O — IC50 (kainate receptor (rat); binding, radioligand binding; rat cortical synaptosomes; with: [3H]kainate): 27000 nM
O=C(OC(C(F)(F)F)C(F)(F)F)N1Cc2ccc(Br)cc2C1 — IC50 (ABHD6 (Homo sapiens, UniProt Q9BV23); inhibitor, fluorescence): 13.4 nM and 13 nM
COc1ccc(N2CCN(C(=O)CCCn3c(=S)[nH]c4ccccc4c3=O)CC2)cc1 — IC50 (ESR1; reporter gene, antagonist; HEC-1 cells transfected with ERα; with: estradiol 1 nM): 7400 nM
Nc1ccc(Cl)cc1-c1nc2ccccc2[nH]c1=O — IC50 (Protein diaphanous homolog 1, FH2 domain (Diaph1, Mus musculus, UniProt O08808); actin assembly, inhibitor, pyrene-actin polymerization): > 50000 nM
COC(=O)/C(=C/c1c[nH]c2ccc(OC)cc12)c1ccc(NS(C)(=O)=O)cc1 — IC50 (IDO1; enzyme activity, inhibitor): 29500 nM
OC[C@H]1[C@@H](O)[C@H](O)[C@@H](O)CN1CCCCCOCCc1ccsc1 — IC50 (GBA1 (Homo sapiens, UniProt P04062, R534H); inhibitor, 4-methylumbelliferyl glucoside): 205000 nM
C[C@@H](OCC1CCCCC1)[C@H](NC(=O)[C@@H]1CN(C(=O)c2cncs2)CC12CN(C(=O)[C@H]1CC1(C)C)C2)C(=O)N1CCOCC1 — IC50 (Cyclin-dependent kinase 2/cyclin E1 (Homo sapiens, UniProt P24864+P24941); kinase activity, inhibitor, ADP-Glo): 750 nM
Clc1ccc(C2(c3ccc(-c4cccnc4)cc3)CCNCC2)cc1 — IC50 (AKT1; kinase activity, inhibitor, radiometric HotSpot; with: ATP 10 µM): > 10000 nM
CN1CC[C@H](c2c(O)cc(O)c3c(=O)cc(-c4ccccc4F)oc23)[C@H](O)C1 — IC50 (MAPK1 (Homo sapiens, UniProt P28482); kinase activity, inhibitor; with: ATP at Km): > 10000 nM
O=C(NCc1ccc(-c2cnco2)cc1)[C@@H]1C[C@@H](O)CN1C(=O)c1cccc(O)c1 — IC50 (von Hippel-Lindau disease tumor suppressor, with elongin B, C (VHL, Homo sapiens, UniProt P40337); binding, fluorescence polarization; 1% DMSO, with: FAM-HIF1α peptide tracer): 18000 ± 400 nM
Cc1nc(N)sc1-c1csc(Nc2ccc(S(N)(=O)=O)cc2)n1 — IC50 (Protein-lysine 6-oxidase (Homo sapiens, UniProt P28300); LOX activity, inhibitor; MDA-MB-231): 3500 nM
COc1ccc2[nH]cc(CCc3ccc(OS(C)(=O)=O)cc3)c2c1 — IC50 (IDO1; enzyme activity, inhibitor): > 50000 nM
COc1ccc(CC(=O)OCc2ccc(-n3cccn3)cc2)cc1F — IC50 (CD28, with B7 (Homo sapiens, UniProt P10747); luciferase reporter gene, blocker; Jurkat with Raji cells; 5 h): 10300 ± 3300 nM
CC(C)NC(=O)CSc1nc2ccc(NC(=O)CSc3ccc(Br)cc3)cc2s1 — IC50 (ESR1; reporter gene, antagonist; HEC-1 transfected ERα luciferase reporter): 20000 to 50000 nM
COc1cc2c(cc1OC)C(=O)C(=Cc1ccccc1OC(=O)N(C)C)C2 — IC50 (Cocaine esterase (CES2, Homo sapiens, UniProt O00748); inhibitor; 33 min preincubation, with: fluorescein diacetate): 1.74 ± 0.1 nM
COc1ccc2[nH]cc(/C=C/c3ccc(OS(=O)(=O)c4ccc(C)cc4)cc3)c2c1 — IC50 (IDO1; enzyme activity, inhibitor): > 100000 nM
CC(=O)Nc1ccc(NC(=O)C(C)Sc2nnc(Nc3ccccc3F)s2)cc1 (stereo not shown) — IC50 (CD28, with CD80 (Homo sapiens, UniProt P10747); CD28–CD80 binding, inhibitor, competitive ELISA; with: biotinylated CD80): 86700 nM
CN1CCC[C@@H]1C(=O)N[C@@H](Cc1ccccc1)B(O)O — IC50 (Proteasome subunit beta type-3/PSMB7, trypsin-like site (Homo sapiens, UniProt P49720+Q99436); β2c enzyme activity, inhibitor; with: Ac-KQL-AMC): > 10000 nM
COc1ccc2[nH]cc(/C=C/c3ccc(NC(C)=O)cc3)c2c1 — IC50 (APP amyloid-beta peptide; Aβ42 oligomerisation, ELISA): 2500 nM
O=C(Nc1ccc(Cl)cc1)C(NS(=O)(=O)c1cccs1)c1ccccc1F (stereo not shown) — IC50 (Uracil nucleotide/cysteinyl leukotriene receptor, long isoform (GPR17, Homo sapiens, UniProt Q13304); calcium mobilization, antagonist; 1321-N1): 17000 ± 1380 nM
Cc1ccc2oc(-c3c4c(N)n[nH]c(=O)c4nn3-c3ccc(Br)cc3)c(C)c2c1 — IC50 (FGFR1 (Homo sapiens, UniProt P11362); kinase activity, inhibitor, ELISA): 44.6 ± 0.9 nM
CN1CCN(Cc2ccc(NC(=O)c3cncc(C#Cc4c(N)ncc5ccc(F)cc45)c3)cc2C(F)(F)F)CC1 — IC50 (Kinesin-1 heavy chain/ Tyrosine-protein kinase receptor RET (RET/KIF5B, Homo sapiens, UniProt P07949+P33176, G810C); cell viability, inhibitor, CellTiter-Glo; Ba/F3 KIF5B-RET G810C): 17.8 ± 0.51 nM
NC(=O)c1cn(-c2ccc(F)cc2)c2ccc(CCc3cccnc3)cc2c1=O — IC50 (Grm2; calcium mobilization, negative allosteric modulator): 466 nM
Clc1ccc(C2(c3ccc(-c4ccnc5ccccc45)cc3)CCNCC2)cc1 — IC50 (AKT1; kinase activity, inhibitor, radiometric HotSpot; with: ATP 10 µM): 590 nM
O=C(Nc1cccc(-c2nc3ccccc3s2)c1)c1ccc(N2CCOCC2)cc1 — IC50 (Moesin with CD44; MSN-CD44 interaction, inhibitor, TR-FRET; with: CD44): > 100000 nM
N#Cc1ccc2[nH]cc(/C=C/c3cccnc3)c2c1 — IC50 (APP amyloid-beta peptide; Aβ42 oligomerisation, ELISA): > 20000 nM
CNC(=O)CSc1nc(-c2ccc(Cl)cc2)cc(C(F)(F)F)c1C#N — IC50 (TAAR1 (Homo sapiens, UniProt Q96RJ0)): 985 nM
CCc1ccc(-c2nc(Nc3nc4ccccc4o3)ncc2C#N)cc1 — IC50 (Grm5 (Rattus norvegicus, UniProt P31424); calcium mobilization, negative allosteric modulator; with: glutamate EC80): 1530 ± 358 nM
Cc1ccc(-c2cc(CF)nn2-c2ccc(S(C)(=O)=O)cc2)cc1 — IC50 (PTGS2 (Homo sapiens, UniProt P35354); inhibitor; concentration not given): 600 nM
COc1ccc2nccc(Nc3ccc(NC(=O)c4ccc(C)cc4)c(O)c3)c2c1 — IC50 (PKN3 (Homo sapiens, UniProt Q6P5Z2); binding, split-luciferase): > 50000 nM
C[C@H](Nc1nc(N[C@H](C)C2CC2)nc(-c2cccc(C(F)(F)F)n2)n1)C1CC1 — IC50 (Isocitrate dehydrogenase [NADP] cytoplasmic, homodimer (IDH1, Homo sapiens, UniProt O75874, R132H); enzyme activity, inhibitor, diaphorase/resazurin coupled): 58 nM
NCCCSc1c2cc(O)ccc2nc2ccc(O)cc12 — IC50 (DYRK2 (Homo sapiens, UniProt Q92630); inhibitor; with: Woodtide peptide): 170 nM
O=C(Nc1cccc(-c2nc3ccccc3s2)c1)c1ccc([N+](=O)[O-])cc1 — IC50 (Tyrosine-protein kinase SYK, with FCER1G (SYK, Homo sapiens, UniProt P43405); protein binding, inhibitor, TR-FRET): > 100000 nM
CC(=O)N(CC#Cc1cccc(C(N)=O)c1)C[C@H]1C[C@@H](n2ccc3c(Cl)ncnc32)[C@H](O)[C@@H]1O — IC50 (EHMT2 (Homo sapiens, UniProt Q96KQ7); enzyme activity, inhibitor, SAHH-coupled fluorescence): > 100000 nM
COC(=O)[C@@H]1C(c2nc3cncnc3[nH]2)=Cc2cc3c(cc2[C@H]1c1cc(OC)c(OC)c(OC)c1)OCO3 — IC50 (Tubulin alpha/beta heterodimer (Leishmania infantum, UniProt A0A381MCS3+A4HTR0); tubulin polymerization, inhibitor; 37 °C, with: tubulin 1.2 mg/mL): > 20000 nM
NS(=O)(=O)c1ccc(Cc2c(-c3ccc(F)c(C#CC4CCCC4)c3)nn(-c3nc(C(=O)O)cs3)c2CC2CC2)cc1F — IC50 (LDHA (Homo sapiens, UniProt P00338); enzyme activity, inhibitor): 60 ± 130 nM
CC(C)NC(=O)CSc1nc2ccc(NC(=O)CSc3ccc(Cl)c(Cl)c3)cc2s1 — IC50 (ESR1; reporter gene, antagonist; HEC-1 transfected ERα luciferase reporter): > 50000 nM
O=C(/C=C/c1ccc(O)c(OC(F)(F)F)c1)C(CCCOC1CCCCO1)C(=O)/C=C/c1ccc(O)c(OC(F)(F)F)c1 (stereo not shown) — IC50 (Amyloid-beta precursor protein, Aβ aggregates (APP, Homo sapiens, UniProt P05067); binding, thioflavin T competition): 310 nM
CCCC(=O)N1CCC(NC(=O)Nc2ccc(OC(F)(F)F)cc2)CC1 — IC50 (EPHX2 (Homo sapiens, UniProt P34913); enzyme activity, inhibitor, fluorescence; with: CMNPC substrate): 2.1 nM
O=C1Nc2cccc(C#CC3(O)CCNCC3)c2/C1=C/c1cc2ccccc2[nH]1 — IC50 (MAP3K3 (Homo sapiens, UniProt Q99759); enzyme activity, TR-FRET): 237 nM
NC1CCN(Cc2ccn3ncnc(Nc4cccc(-c5noc(C6CCCCC6)n5)c4)c23)CC1 — IC50 (AAK1 (Homo sapiens, UniProt Q2M2I8)): 11 nM
O=C(O)CC[C@H](NC(=O)c1cc(C(=O)O)cc([C@H]2CCN[C@@H]2C(=O)O)c1)C(=O)O — IC50 (kainate receptor (rat); binding, radioligand binding; rat cortical synaptosomes; with: [3H]kainate): > 100000 nM
O=C(C[n+]1cccc(C(=O)Nc2ccc(Cl)cc2)c1)NCc1ccccc1 — IC50 (ALK (Homo sapiens, UniProt Q9UM73); ELISA): 35000 nM
O=C(c1ccc(O)c(Br)c1)N1Cc2ccccc2C1 — IC50 (HSP90AA1 (Homo sapiens, UniProt P07900); binding, fluorescence polarization; with: FITC-geldanamycin): ~2700 nM
CC(C)(N)c1nc2cc(-c3ccnc(F)c3)sc2c(=O)[nH]1 — IC50 (CDC7 (Homo sapiens, UniProt O00311); enzyme activity, inhibitor): 1320 ± 52.9 nM
O=C(CCCn1c(=S)[nH]c2ccccc2c1=O)N1CCN(c2cccc(Cl)c2)CC1 — IC50 (ESR1; reporter gene, coactivator binding inhibitor, luciferase reporter; HEC-1 cells transfected with ERα; partial inhibition, with: estradiol 1 nM): 14800 nM
COc1ccc(-c2nc(C(F)(F)F)nn2-c2ccc(OC)nc2)cc1 — IC50 (Prostaglandin G/H synthase 2 (Macaca mulatta, UniProt F7BWZ9); PGE2 production, inhibitor, enzyme immunoassay; monkey whole blood): 125 ± 34 nM
CC(=NNC(N)=NO)c1ccc(NC(=O)c2cc3cccc([N+](=O)[O-])c3[nH]2)cc1 — IC50 (CHEK2; kinase activity, inhibitor, IMAP fluorescence polarisation; 60 min): 0.07 ± 0.03 nM
COc1ccc(C(=O)Nc2ccc(-c3nc4ccccc4s3)cc2)cc1 — IC50 (Moesin with CD44; MSN-CD44 interaction, inhibitor, TR-FRET; with: CD44): > 100000 nM
Cc1ncc(COc2ccc3c(c2)c(=O)c(C(N)=O)cn3-c2ccc(F)cc2)cn1 — IC50 (Grm2; calcium mobilization, negative allosteric modulator): 723 nM

A few entries again:
COc1cc2c(cc1OC)C(=O)C(=Cc1ccccc1OC(=O)N(C)C)C2 — IC50 (Cocaine esterase (CES2, Homo sapiens, UniProt O00748); inhibitor; 33 min preincubation, with: fluorescein diacetate): 1.74 ± 0.1 nM
COc1ccc2[nH]cc(/C=C/c3ccc(OS(=O)(=O)c4ccc(C)cc4)cc3)c2c1 — IC50 (IDO1; enzyme activity, inhibitor): > 100000 nM
CC(=O)Nc1ccc(NC(=O)C(C)Sc2nnc(Nc3ccccc3F)s2)cc1 (stereo not shown) — IC50 (CD28, with CD80 (Homo sapiens, UniProt P10747); CD28–CD80 binding, inhibitor, competitive ELISA; with: biotinylated CD80): 86700 nM
